Measured values gathered from unrelated publications.
Protocols differ between the studies behind these lines. Values joined by “and” are separate records of one study, mostly repeats; a detail may differ.
DRD4: D(4) dopamine receptor (DRD4, Homo sapiens, UniProt P21917)
Sequence of UniProt P21917 (whole entry, looked up): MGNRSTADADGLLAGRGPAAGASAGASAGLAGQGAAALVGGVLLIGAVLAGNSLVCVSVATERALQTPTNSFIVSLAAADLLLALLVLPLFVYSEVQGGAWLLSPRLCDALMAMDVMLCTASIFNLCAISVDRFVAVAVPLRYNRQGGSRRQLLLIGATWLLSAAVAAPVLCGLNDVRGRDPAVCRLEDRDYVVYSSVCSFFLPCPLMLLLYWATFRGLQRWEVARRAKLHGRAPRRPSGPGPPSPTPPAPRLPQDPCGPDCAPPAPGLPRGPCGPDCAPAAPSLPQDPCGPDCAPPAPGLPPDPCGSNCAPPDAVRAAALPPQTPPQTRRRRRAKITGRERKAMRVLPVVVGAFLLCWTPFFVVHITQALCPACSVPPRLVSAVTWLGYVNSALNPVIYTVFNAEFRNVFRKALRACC
PARP2: Poly [ADP-ribose] polymerase 2 (PARP2, Homo sapiens, UniProt Q9UGN5)
Sequence of UniProt Q9UGN5 (whole entry, looked up): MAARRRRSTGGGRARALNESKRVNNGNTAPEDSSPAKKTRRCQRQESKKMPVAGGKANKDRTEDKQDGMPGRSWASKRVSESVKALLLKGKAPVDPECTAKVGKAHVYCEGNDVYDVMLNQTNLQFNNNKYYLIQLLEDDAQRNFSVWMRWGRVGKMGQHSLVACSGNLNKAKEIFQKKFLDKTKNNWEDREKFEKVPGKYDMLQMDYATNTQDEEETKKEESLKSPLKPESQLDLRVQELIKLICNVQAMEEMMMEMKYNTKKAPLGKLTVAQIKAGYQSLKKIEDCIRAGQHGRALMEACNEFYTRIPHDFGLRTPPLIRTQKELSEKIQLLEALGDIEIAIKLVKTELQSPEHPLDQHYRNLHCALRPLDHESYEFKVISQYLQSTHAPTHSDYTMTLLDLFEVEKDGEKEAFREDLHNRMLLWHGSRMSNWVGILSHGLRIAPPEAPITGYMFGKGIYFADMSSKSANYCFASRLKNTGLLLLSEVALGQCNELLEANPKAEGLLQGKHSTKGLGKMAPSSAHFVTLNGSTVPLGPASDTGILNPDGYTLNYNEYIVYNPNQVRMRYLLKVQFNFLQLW
sn-1-specific diacylglycerol lipase ABHD11: sn-1-specific diacylglycerol lipase ABHD11 (Mus musculus, UniProt Q8K4F5)
Sequence of UniProt Q8K4F5 (whole entry, looked up): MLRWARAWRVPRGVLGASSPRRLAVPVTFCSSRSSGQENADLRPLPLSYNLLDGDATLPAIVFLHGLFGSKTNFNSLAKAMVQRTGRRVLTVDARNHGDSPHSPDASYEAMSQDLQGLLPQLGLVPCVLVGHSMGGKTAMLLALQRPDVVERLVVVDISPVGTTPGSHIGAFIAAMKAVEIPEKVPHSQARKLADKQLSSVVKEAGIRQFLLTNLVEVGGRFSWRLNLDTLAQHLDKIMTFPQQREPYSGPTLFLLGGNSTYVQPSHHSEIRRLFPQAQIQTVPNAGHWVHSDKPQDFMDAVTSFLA
SPHK1: Sphingosine kinase 1 (SPHK1, Homo sapiens, UniProt Q9NYA1)
Sequence of UniProt Q9NYA1 (whole entry, looked up): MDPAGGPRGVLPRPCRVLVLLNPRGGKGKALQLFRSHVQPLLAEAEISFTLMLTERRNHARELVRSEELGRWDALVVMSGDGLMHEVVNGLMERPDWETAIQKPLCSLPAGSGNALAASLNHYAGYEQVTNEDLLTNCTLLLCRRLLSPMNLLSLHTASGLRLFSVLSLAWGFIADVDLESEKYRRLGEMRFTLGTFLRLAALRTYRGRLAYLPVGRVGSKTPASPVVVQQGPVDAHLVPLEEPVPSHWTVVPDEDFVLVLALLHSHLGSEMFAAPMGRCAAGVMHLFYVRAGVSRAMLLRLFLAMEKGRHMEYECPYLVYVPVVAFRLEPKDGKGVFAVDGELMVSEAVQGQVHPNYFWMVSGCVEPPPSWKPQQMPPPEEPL
HDAC3: Histone deacetylase 3 (HDAC3, Homo sapiens, UniProt O15379)
Sequence of UniProt O15379 (whole entry, looked up): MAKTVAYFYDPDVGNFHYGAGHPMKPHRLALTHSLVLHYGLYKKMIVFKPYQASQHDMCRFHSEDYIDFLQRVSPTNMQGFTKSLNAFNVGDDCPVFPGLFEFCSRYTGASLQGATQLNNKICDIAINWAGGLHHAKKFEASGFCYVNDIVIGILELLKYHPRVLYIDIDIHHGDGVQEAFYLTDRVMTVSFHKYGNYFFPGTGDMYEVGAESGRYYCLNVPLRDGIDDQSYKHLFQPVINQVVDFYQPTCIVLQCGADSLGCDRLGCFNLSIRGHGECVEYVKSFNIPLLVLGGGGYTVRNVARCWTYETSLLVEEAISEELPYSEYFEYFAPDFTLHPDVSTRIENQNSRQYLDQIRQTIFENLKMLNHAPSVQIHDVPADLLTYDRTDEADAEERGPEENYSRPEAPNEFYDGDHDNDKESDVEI
Lypla1: Acyl-protein thioesterase 1 (Lypla1, Mus musculus, UniProt P97823)
Sequence of UniProt P97823 (whole entry, looked up): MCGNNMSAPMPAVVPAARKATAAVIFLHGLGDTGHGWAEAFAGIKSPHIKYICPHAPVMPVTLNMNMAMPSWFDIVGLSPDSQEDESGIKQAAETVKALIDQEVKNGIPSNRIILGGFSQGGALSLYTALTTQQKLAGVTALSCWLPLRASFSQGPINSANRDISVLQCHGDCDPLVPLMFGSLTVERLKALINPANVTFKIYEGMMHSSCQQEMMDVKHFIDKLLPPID
PLAT: Tissue-type plasminogen activator (PLAT, Homo sapiens, UniProt P00750)
Sequence of UniProt P00750 (whole entry, looked up): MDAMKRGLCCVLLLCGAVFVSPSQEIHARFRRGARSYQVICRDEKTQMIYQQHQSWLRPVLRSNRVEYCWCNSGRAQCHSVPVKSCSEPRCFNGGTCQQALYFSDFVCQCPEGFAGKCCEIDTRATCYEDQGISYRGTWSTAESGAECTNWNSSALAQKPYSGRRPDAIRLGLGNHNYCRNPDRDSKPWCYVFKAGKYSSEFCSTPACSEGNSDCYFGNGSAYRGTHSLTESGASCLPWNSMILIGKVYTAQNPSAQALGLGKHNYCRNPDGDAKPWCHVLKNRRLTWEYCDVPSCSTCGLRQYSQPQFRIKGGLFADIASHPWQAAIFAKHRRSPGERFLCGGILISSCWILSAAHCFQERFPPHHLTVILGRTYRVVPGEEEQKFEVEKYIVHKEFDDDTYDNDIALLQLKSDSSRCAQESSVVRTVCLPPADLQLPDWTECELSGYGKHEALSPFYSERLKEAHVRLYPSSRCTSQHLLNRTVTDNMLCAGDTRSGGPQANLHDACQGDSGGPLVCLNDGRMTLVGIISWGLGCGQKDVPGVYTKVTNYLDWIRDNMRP
Breakpoint cluster region protein GAP domain: Breakpoint cluster region protein, GAP domain (Homo sapiens, UniProt P11274)
Sequence of UniProt P11274 (whole entry, looked up): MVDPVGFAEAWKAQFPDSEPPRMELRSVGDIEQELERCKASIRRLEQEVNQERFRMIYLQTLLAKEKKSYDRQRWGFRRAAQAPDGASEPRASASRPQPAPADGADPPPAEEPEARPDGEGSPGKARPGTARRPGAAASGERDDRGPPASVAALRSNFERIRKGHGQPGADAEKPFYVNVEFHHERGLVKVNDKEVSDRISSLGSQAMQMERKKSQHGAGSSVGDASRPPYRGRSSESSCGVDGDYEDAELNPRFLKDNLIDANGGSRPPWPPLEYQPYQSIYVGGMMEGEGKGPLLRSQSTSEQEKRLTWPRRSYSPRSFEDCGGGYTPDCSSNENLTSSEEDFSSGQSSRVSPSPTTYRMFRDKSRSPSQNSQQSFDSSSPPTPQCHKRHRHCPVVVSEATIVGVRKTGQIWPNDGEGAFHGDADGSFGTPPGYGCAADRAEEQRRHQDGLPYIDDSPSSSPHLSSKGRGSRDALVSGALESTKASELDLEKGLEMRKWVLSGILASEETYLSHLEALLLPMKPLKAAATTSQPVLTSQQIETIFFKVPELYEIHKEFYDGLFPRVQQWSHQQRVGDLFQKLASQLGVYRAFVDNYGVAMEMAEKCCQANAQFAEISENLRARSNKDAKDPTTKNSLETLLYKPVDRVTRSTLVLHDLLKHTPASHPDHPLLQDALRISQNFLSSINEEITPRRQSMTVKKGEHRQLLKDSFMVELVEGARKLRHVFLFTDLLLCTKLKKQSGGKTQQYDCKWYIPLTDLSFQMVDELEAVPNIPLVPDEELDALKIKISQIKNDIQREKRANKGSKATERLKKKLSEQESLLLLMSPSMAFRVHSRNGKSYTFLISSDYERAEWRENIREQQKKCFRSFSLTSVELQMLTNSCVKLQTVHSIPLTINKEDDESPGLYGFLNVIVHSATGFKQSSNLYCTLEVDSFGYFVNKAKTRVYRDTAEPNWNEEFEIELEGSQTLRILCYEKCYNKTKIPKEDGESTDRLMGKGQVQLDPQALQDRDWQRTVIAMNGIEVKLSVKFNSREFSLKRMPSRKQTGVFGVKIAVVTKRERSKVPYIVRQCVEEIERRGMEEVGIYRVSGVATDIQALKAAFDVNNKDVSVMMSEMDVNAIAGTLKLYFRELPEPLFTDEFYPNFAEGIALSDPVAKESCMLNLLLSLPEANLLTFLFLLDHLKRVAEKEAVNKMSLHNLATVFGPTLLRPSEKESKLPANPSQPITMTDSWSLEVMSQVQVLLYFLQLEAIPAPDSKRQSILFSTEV
PIP4K2A: Phosphatidylinositol 5-phosphate 4-kinase type-2 alpha (PIP4K2A, Homo sapiens, UniProt P48426)
Platelet-activating factor acetylhydrolase 2, cytoplasmic: Platelet-activating factor acetylhydrolase 2, cytoplasmic (Mus musculus, UniProt Q8VDG7)
Sequence of UniProt Q8VDG7 (whole entry, looked up): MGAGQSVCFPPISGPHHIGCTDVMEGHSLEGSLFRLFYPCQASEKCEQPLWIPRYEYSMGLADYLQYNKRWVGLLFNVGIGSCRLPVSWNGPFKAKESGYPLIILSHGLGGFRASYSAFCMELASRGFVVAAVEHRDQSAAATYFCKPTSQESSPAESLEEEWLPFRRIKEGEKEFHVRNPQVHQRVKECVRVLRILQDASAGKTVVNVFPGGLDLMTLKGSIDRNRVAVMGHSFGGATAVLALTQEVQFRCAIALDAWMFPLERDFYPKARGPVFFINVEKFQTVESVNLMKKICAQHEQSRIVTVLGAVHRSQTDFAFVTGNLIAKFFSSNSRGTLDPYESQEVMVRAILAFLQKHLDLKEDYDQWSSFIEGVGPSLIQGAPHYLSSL
Sequence of UniProt Q9HAN9 (whole entry, looked up): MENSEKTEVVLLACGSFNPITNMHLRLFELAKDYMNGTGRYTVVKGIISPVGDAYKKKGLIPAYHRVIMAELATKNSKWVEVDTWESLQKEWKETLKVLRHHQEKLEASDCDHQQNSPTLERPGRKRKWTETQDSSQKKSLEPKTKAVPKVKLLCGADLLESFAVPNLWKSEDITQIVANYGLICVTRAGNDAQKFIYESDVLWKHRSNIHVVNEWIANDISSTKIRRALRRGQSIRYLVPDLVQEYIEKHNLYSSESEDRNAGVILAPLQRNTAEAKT

SMILES	target	assay	test system	conditions	inhibition
COc1cc(OC)c(F)c(/C=C/c2cnc3ccn(S(=O)(=O)c4cn(CCF)cn4)c3n2)c1F	IGF1R (Homo sapiens, UniProt P08069)			100 nM	11.5%
C[Si](C)(C)C[C@H](CN)CC(=O)O	SLC6A4 (Homo sapiens, UniProt P31645)	ligand displacement, radioligand		250 µM	8%
COc1ccc(CN2CC(COc3nc4ccccc4s3)CC(F)(F)C2)cc1F (centres unmarked)	DRD4	ligand displacement, radioligand		10 µM	11%
CC[C@H](C)[C@@H]1NC(=O)[C@H](Cc2ccccc2C(F)(F)F)NC(=O)CCSCc2cccc(n2)CSCCCNC(=O)[C@H](CCCCCC(=O)O)NC1=O	HDAC8 (Homo sapiens, UniProt Q9BY41)	enzyme activity, inhibitor, fluorogenic		30 µM	25%
O=C(CC1CC2CCC1C2)NCCNC(=O)Cn1c(=O)[nH]c(=O)c2ccccc21 (centres unmarked)	PARP1 (Homo sapiens, UniProt P09874)	enzyme activity, inhibitor		0.5 µM	22%
COc1cc(-n2cc3cc(F)cc(C(N)=O)c3n2)cc(Cl)c1C1CC(O)(CCO)Cc2ccccc21 (centres unmarked)	PARP2	enzyme activity, inhibitor		10 µM	1.56%
C[Si]1(C[C@H](CN)CC(=O)O)CCCC1	L-type calcium channel, rat	binding, radioligand binding		70 µM, added: [3H]diltiazem	-8%
O=C1c2sc(-c3ccc(N4CCC(F)C4)nc3F)nc2CCN1c1cccnc1 (centres unmarked)	AMPA receptor	radioligand binding		1 µM, added: agonist radioligand	-23%
O=C(N1CCCC1)n1ccnn1	sn-1-specific diacylglycerol lipase ABHD11	serine hydrolase activity, inhibitor, competitive gel-based ABPP	mouse T-cell proteome	1 µM, 30 min, 37 °C	> 95%
C=CC(=O)Nc1cccc(-c2cnc3[nH]cc(C(=O)NC(C)(C)C)c3n2)c1	SPHK1	kinase activity		0.1 µM	-2% and -6%
C=CCN(CC=C)C(=O)n1ccnn1	sn-1-specific diacylglycerol lipase ABHD11	serine hydrolase activity, inhibitor, competitive gel-based ABPP	mouse T-cell proteome	1 µM, 30 min, 37 °C	> 95%
Cc1c(COc2cc(OCc3cccc(C#N)c3)c(CNC(C)(CO)CO)cc2Cl)cccc1-c1cccc(OCc2ccc(/C=C/C(=O)NO)cc2)c1	HDAC3	enzyme activity, inhibitor		1 µM	36.9%
O=C(n1ccnn1)n1c2ccccc2c2ccccc21	Lypla1			1 µM	< 50%
Cc1ccc(CNC(=O)C(CCc2ccccc2)NC(=O)C(NC(=O)Cc2cccc(Oc3ccccc3)c2)C(C)O)cc1 (centres unmarked)	PLAT	enzyme activity, inhibitor		100 µM	19%
O=C1CC(=O)N(c2ccccc2)N1c1ccccc1	Breakpoint cluster region protein GAP domain	GAP activity		10 µM, selectivity counter screen	-16.4%
Cc1nc2c(F)cc(-c3nc(Nc4ccc(CNC(=O)CCCCCCC(=O)NO)cc4)ncc3F)cc2n1C(C)C	PIP4K2A	enzyme activity, inhibitor		1 µM	0%
COc1ccc2nc(C)ccc2c1Nc1sn(C)c(=O)c1C#N	PARP2	enzyme activity, inhibitor		10 µM	0%
O=C1c2sc(-c3ccc(N4CCC(CO)CC4)nc3F)nc2CCN1c1cccnc1	CNR1 (Homo sapiens, UniProt P21554)	ligand displacement, radioligand		1 µM	-9%
CN(C(=O)n1ccnn1)c1ccccc1	Platelet-activating factor acetylhydrolase 2, cytoplasmic	serine hydrolase activity, inhibitor, competitive gel-based ABPP	mouse T-cell proteome	1 µM, 30 min, 37 °C	< 50%
Cc1c(COc2cc(OCc3cccc(C#N)c3)c(CNC(C)(CO)CO)cc2Cl)cccc1-c1cccc(OCCCCCC(=O)NO)c1	HDAC3	enzyme activity, inhibitor		1 µM	91.5%
CC(=O)O[C@@]1(C)CN(Cc2ccccc2)[C@H]2C[C@@H]1CC(=O)[C@@H]2C	OPRK1 (Cavia porcellus, UniProt P41144)	binding, radioligand binding	guinea pig brain	1 µM, added: [3H]U-69,593	0%
CN1CCN(Cc2ccc(-c3ccc(CO[C@H]4CCC[C@@H]4NC(=O)c4cc(-c5cnn(C)c5)cnc4N)cc3)cc2)CC1	SPHK1	enzyme activity, inhibitor		0.1 µM	-7%
COc1ccc2c(c1)CCc1sc(N)nc1-2	Breakpoint cluster region protein GAP domain	GAP activity		10 µM, selectivity counter screen	88.5%
O=C(N1CCOCC1)n1ccnn1	sn-1-specific diacylglycerol lipase ABHD11	serine hydrolase activity, inhibitor, competitive gel-based ABPP	mouse T-cell proteome	1 µM, 30 min, 37 °C	> 95%
N#Cc1c(Nc2ccccc2C(F)(F)F)s[nH]c1=O	NMNAT1 (Homo sapiens, UniProt Q9HAN9)	enzyme activity, inhibitor		10 µM	54%

SMILES	target	assay	test system	conditions	inhibition
CC1Cc2ccccc2N1C(=O)CN1CCN(Cc2ccccc2)CC1 (centres unmarked)	DRD4	radioligand binding		concentration not given, added: [3H]N-methylspiperone	99.4%
Cc1c(COc2cc(OCc3cccc(C#N)c3)c(CN3CCCC[C@H]3C(=O)O)cc2Cl)cccc1-c1cccc(OCCCCCC(=O)NO)c1	HDAC3	enzyme activity, inhibitor		1 µM	93.2%
O=C(CCCc1ccc2c(c1)OCCO2)NCCNC(=O)Cn1c(=O)[nH]c(=O)c2ccccc21	PARP2	enzyme activity, inhibitor		50 nM	60%
O=C(Nc1ccc(C(F)F)cc1)[C@H](CC1CCCCC1)Nc1nn2c(=O)ccnc2s1	PTPN11 (Homo sapiens, UniProt Q06124)	enzyme activity, inhibitor		10 µM	5%
CN(C)C/C=C/C(=O)Nc1ccc2nc(NCCCCCN(C)C)nc(NCCCCCCN(C)C)c2c1	DNMT1 (Homo sapiens, UniProt P26358)	enzyme activity, inhibitor, radiometric		50 µM	2%
Cc1cc(Cl)cc(-c2ccnc3cc(CN4C(=O)C5C(C4=O)C5(C)C)sc23)c1C[C@@H]1CNCCO1 (some centres unmarked)	USP7 (Homo sapiens, UniProt Q93009)	enzyme activity, inhibitor		0.5 µM	115% and 122%
Cc1cccc(O[C@H]2CCC[C@@H](C(C)CNCc3ccncc3)C2)c1 (relative stereo)	SPHK1	enzyme activity, inhibitor		10 µM	-1%
CN1CCN(C(=O)n2ccnn2)CC1	Platelet-activating factor acetylhydrolase 2, cytoplasmic	serine hydrolase activity, inhibitor, competitive gel-based ABPP	mouse T-cell proteome	1 µM, 30 min, 37 °C	< 50%
COc1ccc(CN2CC(COc3ncc(C)s3)CC(F)(F)C2)cc1F (centres unmarked)	DRD4	ligand displacement, radioligand		10 µM	16%
COc1ccc(NC(=O)Nc2cccc(C(=O)N3CCC(C)CC3)c2)cc1	Beta-lactam-inducible penicillin-binding protein (pbp, Staphylococcus aureus, UniProt P07944)	Bocillin-FL labelling, fluorescence polarization		50 µM	no inhibition
C=CC(=O)N1Cc2nc(-c3cc(-c4cc(Cl)cnc4Cl)c(F)cc3F)n(-c3ccncn3)c2C1	PIP4K2A	cell-free assay, inhibitor		1 µM	-12.6%
Cc1c(COc2cc(OCc3cccc(C#N)c3)c(CN3CCCC[C@H]3C(=O)O)cc2Cl)cccc1-c1cccc(OCCCCCCC(=O)NO)c1	HDAC3	enzyme activity, inhibitor		1 µM	96%
CCCCCCC#Cc1cncc(-c2nnc(SCc3cc([N+](=O)[O-])cc([N+](=O)[O-])c3)n2C)c1	mraY (Staphylococcus aureus, UniProt Q2FZ93)	cell-free assay, inhibitor		250 µM	49%
O=C(O)C1Nc2ccc(Br)cc2C2C=CCC12 (centres unmarked)	Breakpoint cluster region protein GAP domain	GAP activity		10 µM, selectivity counter screen	74.2%
Cc1c(COc2cc(OCc3cccc(C#N)c3)c(CNCCO)cc2Cl)cccc1-c1cccc(OCCCCCC(=O)NO)c1	HDAC3	enzyme activity, inhibitor		1 µM	88.2%
COc1ccc(C[C@H](NC(=O)Cc2cccc(Oc3ccccc3)c2)C(=O)N[C@@H](Cc2c[nH]c3ccccc23)C(=O)NCc2ccc(C)cc2)cc1OC	PLAT	enzyme activity, inhibitor		100 µM	16%
CCCC(=O)O[C@@]1(C)CN(Cc2ccccc2)[C@H]2C[C@@H]1CC(=O)[C@@H]2C	Oprd1 (Rattus norvegicus, UniProt P33533)	ligand displacement, radioligand		1 µM	16%
CN(C)C(=O)n1ccnn1	Lypla1			1 µM	< 50%
CC(=O)C12NC(C)(C)CC1(C)C(=O)C1=C2c2c(c3c4n2C(C)(C)CC2=C4C4(CC(C)(C)NC(C)(C4)C2=O)CC3(C)C)C(=O)C(C)(C)N1 (single isomer, unassigned; (-))	SCN2A (Homo sapiens, UniProt Q99250)	ion current	HEK293T	40 µM	27%
Cc1cc(C(=O)NCCNC(=O)c2cccc(COc3ccccc3C(N)=O)c2)n[nH]1	PARP2	enzyme activity, inhibitor		0.104 µM	100%
C[C@H](NC(=O)[C@H](CC(=O)NCC(C)(C)C)NC(=O)C(=O)c1c[nH]c2ccccc12)C(=O)NCc1ccc(F)cc1F	PLAT	enzyme activity, inhibitor		100 µM	26%
COc1ccc(S(=O)(=O)N2CCc3ccccc3C2)cc1N1CCN(C(=O)c2ccc(F)cc2C(F)(F)F)CC1	ADORA2B (Homo sapiens, UniProt P29275)	ligand displacement, radioligand		1 µM	-14.7%
N#Cc1ccnc(N2C(=O)CC[C@H]2C(=O)N(c2cncc(F)c2)[C@H](C(=O)NC2CC(F)(F)C2)c2ccccc2Cl)c1	GLUD1 (Homo sapiens, UniProt P00367)	enzyme activity		100 µM	no inhibition
CCOC(=O)c1cnc2c(C)cc(C)cc2c1NCCCN(C)C	Breakpoint cluster region protein GAP domain	GAP activity		10 µM, selectivity counter screen	3.59%
Brc1ccccc1-c1nnc(CSc2nnnn2-c2ccccc2)o1	DRD4	ligand displacement, radioligand		10 µM	-42%

For quick reference, copied from above:
SMILES	target	assay	test system	conditions	inhibition
CC(=O)O[C@@]1(C)CN(Cc2ccccc2)[C@H]2C[C@@H]1CC(=O)[C@@H]2C	OPRK1 (Cavia porcellus, UniProt P41144)	binding, radioligand binding	guinea pig brain	1 µM, added: [3H]U-69,593	0%
CN1CCN(Cc2ccc(-c3ccc(CO[C@H]4CCC[C@@H]4NC(=O)c4cc(-c5cnn(C)c5)cnc4N)cc3)cc2)CC1	SPHK1	enzyme activity, inhibitor		0.1 µM	-7%
COc1ccc2c(c1)CCc1sc(N)nc1-2	Breakpoint cluster region protein GAP domain	GAP activity		10 µM, selectivity counter screen	88.5%
